Assay results collected from several papers.
Each numbered part is a random draw from the data of one study; scales do not carry over between parts. Positions count from the first letter of the parent shown.

Block 1 — method: protein binding microarray; form: double-stranded DNA, one strand shown; sample: in vitro; tested at: not given; baseline: not given; reading: higher = stronger binding; measurement: E-score
Target: Histone acetyltransferase KAT6A, winged helix 1, GST fusion (KAT6A, Homo sapiens, UniProt Q92794, residues 1-85)
Setting: 8-mer, flanks averaged, mean of 2 arrays, mostly near background
Target sequence (chain): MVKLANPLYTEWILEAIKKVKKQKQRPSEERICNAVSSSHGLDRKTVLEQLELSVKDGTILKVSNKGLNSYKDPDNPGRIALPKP
AGAGCTTA: -0.173
AGTCTAAC: 0.0255
TGCTCCCA: -0.324
CCCCGGGA: 0.309
AGAGGCCG: 0.118
CTGACAGC: -0.0485

Block 2 — target: CCNB3, cyclin fold, Cln2 fusion (human); method: yeast growth competition, sequencing; sample: yeast; setting: weak parent motif; baseline: not given; reading: higher = stronger binding; measurement: normalised enrichment score
Starting sequence: CDKN1B docking peptide (human); PSACRNLFGPVDH; partner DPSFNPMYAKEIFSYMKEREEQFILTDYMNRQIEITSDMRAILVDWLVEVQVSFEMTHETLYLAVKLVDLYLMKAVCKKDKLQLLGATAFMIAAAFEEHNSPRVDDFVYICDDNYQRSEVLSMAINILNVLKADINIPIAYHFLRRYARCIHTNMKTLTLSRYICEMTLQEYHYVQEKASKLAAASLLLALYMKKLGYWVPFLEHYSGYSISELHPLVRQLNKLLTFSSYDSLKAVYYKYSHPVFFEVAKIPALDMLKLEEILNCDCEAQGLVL
PMACRNLFGPVDH [S2M]: 0.154
PSACRNLFKPVDH [G9K]: 0.826
PFACRNLFGPVDH [S2F]: 0.23
PSACRNLFGRVDH [P10R]: 0.265
PSACRNLFEPVDH [G9E]: 0.32
PIACRNLFGPVDH [S2I]: 0.317
PAACRNLFGPVDH [S2A]: 0.482

Block 3 — method: RNA Bind-n-Seq; form: RNA; sample: in vitro; tested at: 200 nM; setting: whole 134-nt RNA, ends assumed; together with: 150 mM LiCl; baseline: input library; reading: higher = stronger binding; measurement: log2 enrichment; library: 7-deaza-guanosine replaces G
Target: Fragile X messenger ribonucleoprotein 1, C-terminal low-complexity region (Fmr1, Mus musculus, UniProt P35922)
GGGAGUUCUACAGUCCGACGAUCACCAUGCAGGUGGGCGUCUUUGGGAAGUGGGGCAAGGGGGGGAUAGGGAGGGGGGUAACACUUUGGGAACAGGUGGUCCCAGGUCGUUUCUGGAAUUCUCGGGUGUCAAGG: 1.57
GGGAGUUCUACAGUCCGACGAUCAAGUCCUGUGCUACACAUCGUAUGUACCGAAUCGGGUUUGGGUUUUUGGGAAAGGGAAAGUAUUAUGUUACGCCGUUCGGAUCUGCACUUUGGAAUUCUCGGGUGUCAAGG: -0.888
GGGAGUUCUACAGUCCGACGAUCCCUCAAGUCCUGUGCUACACAUCGUAUGUACCGAAUCGGUGGGGUGGGUGGGAAAGUAUUAUGUUACGCCGUUCGGAUCUGCACUUCCAGUGGAAUUCUCGGGUGUCAAGG: -0.0699
GGGAGUUCUACAGUCCGACGAUCACCAUGCAAGUGGGCAUCUUUGGGAAGUGGGGCAAGGGGGGGAUAGGGAGGGGGGUAACACUUUGGGAACAGGUGGUCCCAGGUCGUUUCUGGAAUUCUCGGGUGUCAAGG: 1.18

Other studies, line by line
PhoQ, residues 284 288 289 292 302 303 SLANIV — fold induction (PhoP, residues 12 14 15 18 19 NHFIF (Escherichia coli, UniProt P23836); Sort-seq, measured: YFP reporter; E. coli; PhoQ-PhoP variant library, together with: 10 µM Mg2+; baseline: high Mg2+ state, higher = stronger signaling): 20.8

Some of these lines once more (block 2):
PSACRNLFGRVDH [P10R]: 0.265
